Published values gathered from unrelated publications.
Parts stem from different laboratories: compare values within a part only.
UniProt P46734, sequence (whole entry, looked up): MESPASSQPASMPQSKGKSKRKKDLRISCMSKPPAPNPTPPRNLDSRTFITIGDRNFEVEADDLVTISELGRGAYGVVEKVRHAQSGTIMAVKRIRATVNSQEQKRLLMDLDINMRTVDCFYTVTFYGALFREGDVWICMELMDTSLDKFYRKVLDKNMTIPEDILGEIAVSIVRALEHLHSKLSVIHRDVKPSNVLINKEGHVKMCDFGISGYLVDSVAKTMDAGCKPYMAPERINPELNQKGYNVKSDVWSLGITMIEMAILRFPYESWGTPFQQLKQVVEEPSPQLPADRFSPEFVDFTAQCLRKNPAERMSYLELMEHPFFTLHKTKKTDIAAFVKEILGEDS
UniProt P29320, sequence (whole entry, looked up): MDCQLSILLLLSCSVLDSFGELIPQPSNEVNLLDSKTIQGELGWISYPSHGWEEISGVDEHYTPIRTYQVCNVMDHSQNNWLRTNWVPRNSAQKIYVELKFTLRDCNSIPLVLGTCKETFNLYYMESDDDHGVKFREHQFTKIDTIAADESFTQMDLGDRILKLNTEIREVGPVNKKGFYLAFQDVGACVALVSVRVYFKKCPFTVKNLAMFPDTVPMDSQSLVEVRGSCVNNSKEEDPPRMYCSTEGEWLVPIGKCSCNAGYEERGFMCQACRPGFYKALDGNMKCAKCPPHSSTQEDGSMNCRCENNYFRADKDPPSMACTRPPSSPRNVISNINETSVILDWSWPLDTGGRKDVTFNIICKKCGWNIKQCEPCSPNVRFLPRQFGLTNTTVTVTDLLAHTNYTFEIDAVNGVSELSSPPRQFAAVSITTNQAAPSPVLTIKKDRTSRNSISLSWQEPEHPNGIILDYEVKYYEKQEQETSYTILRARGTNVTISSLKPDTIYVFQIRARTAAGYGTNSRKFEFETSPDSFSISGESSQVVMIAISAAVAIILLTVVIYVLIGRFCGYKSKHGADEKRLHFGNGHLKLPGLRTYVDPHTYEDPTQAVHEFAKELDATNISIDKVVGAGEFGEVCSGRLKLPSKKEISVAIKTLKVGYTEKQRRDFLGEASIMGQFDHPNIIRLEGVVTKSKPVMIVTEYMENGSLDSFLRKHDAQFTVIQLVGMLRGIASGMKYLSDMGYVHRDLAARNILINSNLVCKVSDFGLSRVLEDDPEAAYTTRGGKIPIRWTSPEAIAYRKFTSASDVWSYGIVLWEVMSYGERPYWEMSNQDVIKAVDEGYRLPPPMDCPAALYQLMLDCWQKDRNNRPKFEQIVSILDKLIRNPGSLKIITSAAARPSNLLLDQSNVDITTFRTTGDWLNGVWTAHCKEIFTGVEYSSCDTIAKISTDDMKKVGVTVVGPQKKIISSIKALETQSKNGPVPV
UniProt Q7KZI7, sequence (whole entry, looked up): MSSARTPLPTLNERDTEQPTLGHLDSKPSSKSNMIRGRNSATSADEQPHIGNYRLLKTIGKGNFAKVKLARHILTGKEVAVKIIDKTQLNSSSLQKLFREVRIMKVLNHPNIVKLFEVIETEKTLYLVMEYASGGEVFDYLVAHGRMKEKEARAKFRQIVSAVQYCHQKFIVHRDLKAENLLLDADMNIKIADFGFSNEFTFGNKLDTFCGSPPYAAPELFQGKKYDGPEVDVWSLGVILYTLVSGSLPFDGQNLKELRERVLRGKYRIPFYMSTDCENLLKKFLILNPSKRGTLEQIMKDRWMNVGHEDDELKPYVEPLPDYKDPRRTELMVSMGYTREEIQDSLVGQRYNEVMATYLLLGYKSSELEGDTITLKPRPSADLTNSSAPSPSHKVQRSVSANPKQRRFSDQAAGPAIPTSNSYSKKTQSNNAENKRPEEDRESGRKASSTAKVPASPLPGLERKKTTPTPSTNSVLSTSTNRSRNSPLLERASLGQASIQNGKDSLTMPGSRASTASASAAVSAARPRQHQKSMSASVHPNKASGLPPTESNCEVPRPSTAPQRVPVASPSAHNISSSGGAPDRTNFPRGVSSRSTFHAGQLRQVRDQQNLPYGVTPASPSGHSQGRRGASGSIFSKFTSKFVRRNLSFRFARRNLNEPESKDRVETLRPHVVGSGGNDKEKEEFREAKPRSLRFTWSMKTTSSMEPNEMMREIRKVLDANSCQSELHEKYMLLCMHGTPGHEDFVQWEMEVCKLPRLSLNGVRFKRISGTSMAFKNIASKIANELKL
UniProt P30530, sequence (whole entry, looked up): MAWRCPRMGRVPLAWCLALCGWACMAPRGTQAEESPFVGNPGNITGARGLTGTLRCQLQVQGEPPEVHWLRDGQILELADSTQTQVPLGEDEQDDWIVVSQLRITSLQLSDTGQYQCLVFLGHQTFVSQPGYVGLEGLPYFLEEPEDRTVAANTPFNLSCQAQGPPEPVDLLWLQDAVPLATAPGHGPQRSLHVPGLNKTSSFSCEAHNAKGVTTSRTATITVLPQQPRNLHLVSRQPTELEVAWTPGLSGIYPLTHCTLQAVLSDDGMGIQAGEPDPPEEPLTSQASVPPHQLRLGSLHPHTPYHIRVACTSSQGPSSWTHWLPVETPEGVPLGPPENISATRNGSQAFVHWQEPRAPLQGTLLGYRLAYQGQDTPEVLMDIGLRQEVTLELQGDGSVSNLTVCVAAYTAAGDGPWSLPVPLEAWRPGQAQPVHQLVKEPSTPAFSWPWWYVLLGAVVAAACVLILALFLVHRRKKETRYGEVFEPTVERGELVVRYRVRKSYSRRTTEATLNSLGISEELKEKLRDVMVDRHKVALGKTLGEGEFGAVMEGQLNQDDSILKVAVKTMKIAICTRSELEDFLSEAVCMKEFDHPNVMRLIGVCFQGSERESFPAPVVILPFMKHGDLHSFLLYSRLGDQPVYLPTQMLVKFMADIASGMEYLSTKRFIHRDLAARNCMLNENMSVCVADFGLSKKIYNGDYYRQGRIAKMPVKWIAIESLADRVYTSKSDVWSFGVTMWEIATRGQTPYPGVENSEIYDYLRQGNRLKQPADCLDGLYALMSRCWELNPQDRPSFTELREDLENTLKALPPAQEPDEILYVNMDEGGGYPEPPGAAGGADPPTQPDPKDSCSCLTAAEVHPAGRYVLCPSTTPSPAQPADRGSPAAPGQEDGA

Block 1 — species: human; medium: microsomes or S9; concentration: 2 µM; time: 0.5 h
Structure (SMILES)	remaining compound
CC(CCc1ccco1)NC(=O)c1cc(S(=O)(=O)N(C)C)c(Cl)cc1Cl (stereo not drawn)	3.06%
CNc1nc(Nc2ccccc2C)c(C#N)c2c1COC(C)(C)C2	7.81%
CCN(CCn1cccn1)Cc1[nH]nc(C)c1Cl	57.4%
COc1ccc(C2c3cccn3-c3sc4c(c3CN2C(=O)NC(C)C)CCCC4)cc1 (stereo not drawn)	4.28%
CS(=O)(=O)N1CCN(Cc2ccc(Oc3cccc(C(F)(F)F)c3)c3c(N)n[nH]c23)CC1	80.8%
Cc1ccccc1S(=O)(=O)N(CCn1nnc(C(=O)O)c1C(=O)O)C1CCCCC1	> 99.9%
O=C(CCCCCNc1ncccn1)Nc1nc[nH]n1	97.8%

Block 2 — Structure (SMILES): CCC(=N\O)/C(C)=C/c1ccc(F)cc1; observed: cell-free assay; method: competition with immobilised ligand; concentration: 1 µM
target	remaining binding [%]
EPHA3 (Homo sapiens, UniProt P29320)	100
AXL (Homo sapiens, UniProt P30530)	100
ROS1 (Homo sapiens, UniProt P08922)	87
MAP2K3 (Homo sapiens, UniProt P46734)	94
MARK2 (Homo sapiens, UniProt Q7KZI7)	100
Tyrosine-protein kinase ABL1, non-phosphorylated (ABL1, Homo sapiens, UniProt P00519, Q252H)	90

Block 3 — observed: enzyme activity; action: inhibitor; concentration: 0.5 µM; relative to: control
Target: Vascular endothelial growth factor receptor 3 (FLT4, Homo sapiens, UniProt P35916)
UniProt P35916, sequence (whole entry, looked up): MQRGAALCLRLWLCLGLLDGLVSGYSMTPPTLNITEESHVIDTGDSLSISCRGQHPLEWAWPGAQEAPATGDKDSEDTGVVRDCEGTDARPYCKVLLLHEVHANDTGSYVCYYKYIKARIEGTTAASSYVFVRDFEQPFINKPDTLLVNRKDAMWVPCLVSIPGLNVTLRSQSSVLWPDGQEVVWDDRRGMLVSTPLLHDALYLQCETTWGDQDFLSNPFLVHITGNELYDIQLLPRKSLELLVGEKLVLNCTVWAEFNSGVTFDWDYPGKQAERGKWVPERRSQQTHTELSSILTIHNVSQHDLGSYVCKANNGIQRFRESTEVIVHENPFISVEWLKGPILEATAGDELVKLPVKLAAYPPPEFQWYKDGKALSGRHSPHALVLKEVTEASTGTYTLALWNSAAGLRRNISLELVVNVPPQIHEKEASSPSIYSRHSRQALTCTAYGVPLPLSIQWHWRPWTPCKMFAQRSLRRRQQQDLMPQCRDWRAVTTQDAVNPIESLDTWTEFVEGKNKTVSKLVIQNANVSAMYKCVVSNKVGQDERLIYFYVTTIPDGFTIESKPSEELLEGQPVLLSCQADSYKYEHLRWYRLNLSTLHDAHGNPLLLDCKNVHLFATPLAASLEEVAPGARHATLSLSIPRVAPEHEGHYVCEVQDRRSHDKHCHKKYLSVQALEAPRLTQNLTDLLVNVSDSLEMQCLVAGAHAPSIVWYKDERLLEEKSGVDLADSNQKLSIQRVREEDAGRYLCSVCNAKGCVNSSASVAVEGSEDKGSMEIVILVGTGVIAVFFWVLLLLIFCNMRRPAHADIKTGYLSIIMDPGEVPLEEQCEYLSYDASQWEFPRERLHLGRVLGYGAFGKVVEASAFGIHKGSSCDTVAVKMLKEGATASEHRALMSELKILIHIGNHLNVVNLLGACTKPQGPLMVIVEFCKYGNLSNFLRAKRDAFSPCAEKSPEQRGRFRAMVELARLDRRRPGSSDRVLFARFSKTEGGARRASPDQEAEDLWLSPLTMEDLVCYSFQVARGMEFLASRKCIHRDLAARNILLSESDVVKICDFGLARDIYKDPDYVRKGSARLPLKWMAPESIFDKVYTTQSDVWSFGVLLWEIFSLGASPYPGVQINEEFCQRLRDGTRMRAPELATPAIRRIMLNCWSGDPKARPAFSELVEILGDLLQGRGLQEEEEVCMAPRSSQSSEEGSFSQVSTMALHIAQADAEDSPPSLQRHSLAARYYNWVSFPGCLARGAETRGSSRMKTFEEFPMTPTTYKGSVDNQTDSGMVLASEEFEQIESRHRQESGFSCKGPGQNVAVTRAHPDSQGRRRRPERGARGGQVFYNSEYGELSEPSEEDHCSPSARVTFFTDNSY
SMILES	remaining activity
C#Cc1cccc(Nc2ncnc3cc(OCCOC)c(OCCOC)cc23)c1	73.5%
O=C(CCCc1ccc(-c2ccccc2F)cc1)Nc1ccc(O)cc1	99.3%
Cn1c2ccccc2c2c3c(c4c5ccccc5n(CCC#N)c4c21)CNC3=O	38.2%
COc1cc2nccc(Oc3ccc(NC(=S)NC(=O)c4ccccc4C)cc3)c2cc1OC	73.8%
Cc1cccc(-c2[nH]c(C(C)(C)C)nc2-c2ccc3c(c2)OCO3)n1	99.8%
O=C(Nc1cccc(Nc2cc(Nc3cccc(C(F)(F)F)c3)ncn2)c1)C1CC1	107%
Cc1ccc(NC(=O)c2ccc(CN3CCN(C)CC3)cc2)cc1Nc1nc(-c2cccnc2)cs1	100%
CN(C)c1ccc(C=C2C(=O)Nc3ccccc32)cc1	98.8%
NCCNc1ncc(C(N)=O)c(Nc2cccc(C(F)(F)F)c2)n1	82.7%
O=c1c2ccccc2[nH]c(=S)n1CCN1CCC(=C(c2ccc(F)cc2)c2ccc(F)cc2)CC1	107%
Cn1sc(=O)n(Cc2ccccc2)c1=O	86.8%
COc1cc2ncnc(Nc3ccc(Oc4ccccc4)cc3)c2cc1OC	62.5%
Cc1nc(-c2ccccc2)c(-c2ccncc2)o1	108%
COc1ccc(OC)c2c(=S)c3ccccc3[nH]c12	98.1%
Nc1ncnc2n[nH]c(Nc3ccc(F)cc3)c12	92.9%

Block 4 — organism: Sarcocystis neurona; observed: parasite growth; concentration: 10 µM; time: 96 h; notes: second screen; relative to: untreated
Compound	log2 fold change
C#C[C@]1(OC(C)=O)CC[C@H]2[C@@H]3CCC4=CC(=O)CC[C@@H]4[C@H]3CC[C@@]21C	0.2
CC1CNc2c(cccc2S(=O)(=O)N[C@@H](CCCNC(=N)N)C(=O)N2CC[C@@H](C)C[C@@H]2C(=O)O)C1 (stereo partly drawn)	0.33
C[C@H](CCC(=O)O)[C@H]1CC[C@H]2[C@@H]3C(=O)C[C@@H]4CC(=O)CC[C@]4(C)[C@H]3CC(=O)[C@]12C	0.42
CN1CCN(CCCN2c3ccccc3Sc3ccc(Cl)cc32)CC1	0.1
NS(=O)(=O)c1cc2c(cc1Cl)NCNS2(=O)=O	0.04
COc1c(N2CCNC(C)C2)c(F)cc2c(=O)c(C(=O)O)cn(C3CC3)c12 (stereo not drawn)	-0.18
CCN1CCC[C@H]1CNC(=O)c1c(O)c(Cl)cc(Cl)c1OC	0.35
CC(C)[C@H]1CC[C@H](C(=O)N[C@H](Cc2ccccc2)C(=O)O)CC1	-0.09

Some of these lines once more (block 2):
target	remaining binding [%]
MARK2 (Homo sapiens, UniProt Q7KZI7)	100
Tyrosine-protein kinase ABL1, non-phosphorylated (ABL1, Homo sapiens, UniProt P00519, Q252H)	90
EPHA3 (Homo sapiens, UniProt P29320)	100
AXL (Homo sapiens, UniProt P30530)	100
